Published values collected from several papers.
Each line is one published result; not all experiments were run side by side. Values joined by “and” are separate records of one study, mostly repeats; a detail may differ. ± marks the error that the study gave.

Compound | cell line | test | test system | setting | scale | measurement | result
CC(C)(c1ccc(O)cc1)c1ccc(O)cc1 | HepG2 spheroids, dissociated | annexin V-FITC/PI flow cytometry |  | 0.01 µM, 96 h |  | viable cells | 53.7 ± 2.99%
CCn1c(=O)c2c(nc(/C=C/c3ccc(OC)c(OC)c3)n2C)n(CC)c1=O | MDCK |  |  | 1 µM, 90 min, pH 7.4 apical, 7.4 basolateral |  | Papp A to B | 25.6 ×10⁻⁶ cm/s and 28.8 ×10⁻⁶ cm/s
CC(=O)Nc1ccc(O)cc1 | THLE-2, 3D culture | MTT |  | 100 µM, 96 h |  | viability | 67.4%
C[C@H]1[C@H](OC(=O)CCC(=O)O)O[C@@H]2O[C@@]3(C)CC[C@H]4[C@H](C)CC[C@@H]1[C@@]24OO3 | human iPSC-derived cardiomyocytes | cell viability |  | 72 h |  | highest non-toxic concentration | > 10 µM
COc1ccc(C=NNC(=O)c2nc3ccccc3s2)cc1O | BJ-1 fibroblasts | MTT |  | 100 µM, 48 h |  | cytotoxicity | 15.4%
NCCCCCN | HCT-8 infected with Cryptosporidium parvum | Hoechst nuclei count |  | 1 mM, 24 h | reference: PBS | host cell number | 1 ± 0.05
Cn1cc(-c2ccc(-c3cncc(Cl)c3N3CCC4(CCNC4=O)CC3)cc2)cn1 | COLO 205 | gene expression, microarray, measured: SULF1 mRNA |  | concentration not given, 2 h | reference: untreated cells | log2 fold change | 2.47
CC(C)C[C@H](NC(=O)OCc1ccccc1)C(=O)N[C@@H](CC1CCNC1=O)C(O)S(=O)(=O)O (stereo partly shown) | Vero-E6 | CCK-8 |  | 24 h |  | CC50 | > 800 µM
COC[C@@H](CC(C)C)NC(=O)c1ccc(C)c(C)c1 | primary human lymphocytes |  |  | 322 µg/mL, 4 h |  | mitotic index | 5.1
Cc1noc(C)c1Cn1cc(N2C(=O)CN(Cc3cccc(O)c3)C2=O)cn1 | human blood lymphocytes |  |  | 494.3 µg/mL, 3 h, with 2% S9 |  | aberrant cells without gaps | 0%
CC(C)n1nccc1-c1ncccc1COc1cccc(O)c1C=O | MDCK | permeability basolateral to apical |  | 1 µM, 90 min, pH 6.5 apical to 7.4 basolateral |  | Papp | 39 ×10⁻⁶ cm/s and 34.3 ×10⁻⁶ cm/s
CC[C@H](N)C(=O)O | HCT-8 infected with Cryptosporidium parvum | Hoechst nuclei count |  | 1 mM, 24 h | reference: PBS | host cell number | 0.983 ± 0.067
Cc1cc(C(=O)NC(C)(C)COc2cccc3c2C(N)=NS(=O)(=O)N3)cc(C)n1 | human peripheral blood lymphocytes | CBPI, concurrent micronucleus test |  | 1500 µg/mL, 24 h | reference: vehicle control | cytotoxicity | 5%
CC(C)NCC(O)COc1cccc2ccccc12 (stereo not shown) | C2BBe1 (Caco-2 clone) |  |  |  |  | Papp | 25.2 ×10⁻⁶ cm/s
C/C=C(/C)C(=O)OC[C@H]1[C@@H](Cc2ccc(C(F)(F)F)cc2)CO[C@@H]1c1ccc(F)cc1 | HEK293/NF-κB-luc | CellTracker Green CMFDA |  | 20 µM, 4.5 h, serum-free medium | reference: stimulated untreated cells | viability | 90 ± 22%
NCCCCNCCCN | HCT-8 infected with Cryptosporidium parvum | Hoechst nuclei count |  | 1 mM, 24 h | reference: PBS | host cell number | 0.982 ± 0.042
CCCCCS(=O)(=O)NC1CCN(c2ncnc3c2nc(-c2ccccc2Cl)n3-c2ccc(Cl)cc2)CC1 | MDCK-MDR1 |  |  | 10 µM, 1 h, pH 7.4, 37 °C |  | permeability A to B | < 0.1%
COc1cc2ncnc(Nc3ccc(Oc4ccccc4)cc3C)c2cc1OC.O=C(O)C(F)(F)F | A-375 (BRAF V600E) |  |  | 1 µM, 72 h |  | viability | 1.03 fraction of control
COc1ccc(Nc2cnnc3cc(-c4ccc(S(=O)(=O)N5CCN(C)CC5)cc4)ccc23)nc1 | B10R mouse macrophages | cytotoxicity |  |  |  | TC50 | 9.5 µM
CC(=O)Oc1ccccc1C(=O)O | human iPSC-derived cardiomyocytes |  |  | 0.1 µM |  | beat rate | 46.2 ± 0.7 min⁻¹
CC(C)NCC(O)COc1cccc2ccccc12 (stereo not shown) | MDCK-MDR1 cells |  |  | 5 µM, pH 7.4 |  | Papp B to A | 49 ×10⁻⁶ cm/s
CC(C)C[C@H](NC(=O)[C@H](CC(C)C)NC(=O)[C@H](CCCNC(=N)N)NC(=O)[C@H](CCCCN)NC(=O)[C@H](CCCNC(=N)N)NC(=O)[C@H](CC(C)C)NC(=O)[C@H](CCCCN)NC(=O)[C@H](CCCNC(=N)N)NC(=O)[C@H](CC(C)C)NC(=O)[C@H](CC(C)C)NC(=O)[C@H](CC(C)C)NC(=O)[C@H](CCCNC(=N)N)NC(=O)[C@H](CCCCN)NC(=O)[C@H](CCCNC(=N)N)NC(=O)[C@H](CC(C)C)NC(=O)[C@H](CCCCN)NC(=O)[C@H](CCCNC(=N)N)NC(=O)[C@H](CC(C)C)NC(=O)CNC(=O)CNC(=O)CNC(=O)c1ccc2c(c1)C(=O)OC21c2ccc(O)cc2Oc2cc(O)ccc21)C(N)=O | hCMEC/D3 monolayers | BBB permeability, Transwell, measured: CF-labelled compound | EGM-2 medium | concentration not given, 2 h, apical to basal | reference: fluorescence added apically | transport ratio | 8.3%

Compound | cell line | test | test system | setting | scale | measurement | result
C[C@@H]1COCCN1c1nc(-c2cnc(N)c(C(F)(F)F)c2)nc2c1C[C@@H]1COCCN21 | MDCK |  |  | 1 µM, 20 (unit not given) |  | Papp A to B | 109 ×10⁻⁶ cm/s
CN(C)c1ccc(C(=C2C=CC(=[N+](C)C)C=C2)c2ccc(N(C)C)cc2)cc1 | MYBPC3 iPSC cardiomyocytes | cytotoxicity |  | 24 h |  | EC50 | 39.3 µM
O=C(O)CC(O)C(=O)O (racemic) | HCT-8 infected with Cryptosporidium parvum | Hoechst nuclei count |  | 1 mM, 24 h | reference: PBS | host cell number | 0.987 ± 0.04
O=C(O)CCCOc1ccc(F)cc1-c1cc(-c2ccccc2C(F)(F)F)n(-c2ccccc2)n1 | human iPSC-derived cardiomyocytes |  |  | 200 µM |  | beat rate | 51.2 ± 1 min⁻¹
CC(=O)Nc1ccc(O)cc1 | MDCK |  |  | 1 µM, 90 min, pH 7.4 apical, 7.4 basolateral |  | Papp A to B | 8.18 ×10⁻⁶ cm/s and 10.5 ×10⁻⁶ cm/s
O=C(O)CCC(=O)C(=O)O | HCT-8 infected with Cryptosporidium parvum | Hoechst nuclei count |  | 1 mM, 24 h | reference: PBS | host cell number | 0.923 ± 0.154
C/C=C(/C)C(=O)OC[C@H]1[C@@H](Cc2ccc(C(F)(F)F)cc2)CO[C@@H]1c1ccc(OC)c(OC)c1 | HEK293/NF-κB-luc | CellTracker Green CMFDA |  | 20 µM, 4.5 h, serum-free medium | reference: stimulated untreated cells | viability | 84 ± 17%
Nc1ncnc2nc[nH]c12 | HCT-8 infected with Cryptosporidium parvum | Hoechst nuclei count |  | 1 mM, 24 h | reference: PBS | host cell number | 1.04 ± 0.022
CCCC(CCC)NC(=O)c1ccc2c(c1)OCO2 | CHO-WBL |  |  | 1.67 mg/mL, 3 h, with rat liver S9 | reference: vehicle control | relative cell growth | 72%
CC(C)C[C@H](NC(=O)[C@H](CCCNC(=N)N)NC(=O)CNC(=O)CNC(=O)[C@H](CCCNC(=N)N)NC(=O)CNC(=O)CNC(=O)CNC(=O)c1ccc2c(c1)C(=O)OC21c2ccc(O)cc2Oc2cc(O)ccc21)C(=O)N[C@@H](CO)C(=O)N[C@@H](Cc1ccc(O)cc1)C(=O)N[C@@H](CO)C(=O)N[C@@H](CCCNC(=N)N)C(=O)N[C@@H](CCCNC(=N)N)C(=O)N[C@@H](CCCNC(=N)N)C(=O)N[C@@H](Cc1ccccc1)C(=O)N[C@@H](CO)C(=O)N[C@H](C(=O)N[C@@H](CO)C(=O)N[C@H](C(=O)NCC(=O)N[C@@H](CCCNC(=N)N)C(N)=O)[C@@H](C)O)[C@@H](C)O | hCMEC/D3 monolayers | BBB permeability, Transwell, measured: CF-labelled compound | EGM-2 medium | concentration not given, 2 h, apical to basal | reference: fluorescence added apically | transport ratio | 8.9%
Nc1cc[nH]c(=O)n1 | HCT-8 infected with Cryptosporidium parvum | Hoechst nuclei count |  | 1 mM, 24 h | reference: PBS | host cell number | 1.01 ± 0.075
Cn1cc2c(C(=O)O)ccc(NS(=O)(=O)c3ccc(OCC4CCC4)c(Cl)c3)c2n1 | RRCK cells | passive permeability |  |  |  | apparent permeability | 11 ×10⁻⁶ cm/s
O=c1[nH]c(=O)c2[nH]cnc2[nH]1 | HCT-8 infected with Cryptosporidium parvum | Hoechst nuclei count |  | 1 mM, 24 h | reference: PBS | host cell number | 0.952 ± 0.114
CNC(=O)c1cc(Oc2ccc(NC(=O)Nc3ccc(Cl)c(C(F)(F)F)c3)cc2)ccn1 | NIH/3T3 | MTT |  | 24 h |  | CC50 | 7.56 µM
CCCS(=O)(=O)Oc1cc(C=NNC(=O)c2nc3ccccc3s2)ccc1OC | BJ-1 fibroblasts | MTT |  | 100 µM, 48 h |  | cytotoxicity | 35%
CN1CCN(c2ccc(-c3ccc4nncc(Nc5ccc(OC(F)(F)F)cc5)c4c3)cc2)CC1 | B10R mouse macrophages | cytotoxicity |  |  |  | TC50 | 3.2 µM
Cc1cnc(Nc2ccc(OCCN3CCCC3)cc2)nc1Nc1cccc(S(=O)(=O)NC(C)(C)C)c1 | MDCK |  |  | 1 µM, 90 min, pH 7.4 apical, 7.4 basolateral |  | Papp A to B | 1.27 ×10⁻⁶ cm/s and 1 ×10⁻⁶ cm/s
O=C(CS(=O)(=O)O)Nc1ccc(N2CCOCC2)c(Br)c1 | MDCK-MDR1 |  |  | MDR1 inhibited |  | Papp | 0.005 ×10⁻⁶ cm/s
CCS(=O)(=O)Oc1ccc(C=NNC(=O)c2nc3ccccc3s2)cc1OC | BJ-1 fibroblasts | MTT |  | 100 µM, 48 h |  | cytotoxicity | 53.2%
COc1ccc(Nc2cnnc3cc(-c4ccc(S(=O)(=O)N5CCN(C)CC5)cc4)ccc23)cc1Cl | B10R mouse macrophages | cytotoxicity |  |  |  | TC50 | > 10 µM
CC(=O)Nc1cccc(-n2c(=O)n(C3CC3)c(=O)c3c(Nc4ccc(I)cc4F)n(C)c(=O)c(C)c32)c1 | MeWo | resazurin |  | 100.00 nM, 72 h, unit not given | reference: DMSO | viability | 0.5 and 0.553

For quick reference, copied from above:
Compound | cell line | test | test system | setting | scale | measurement | result
O=C(O)CCCOc1ccc(F)cc1-c1cc(-c2ccccc2C(F)(F)F)n(-c2ccccc2)n1 | human iPSC-derived cardiomyocytes |  |  | 200 µM |  | beat rate | 51.2 ± 1 min⁻¹
CC(=O)Nc1ccc(O)cc1 | MDCK |  |  | 1 µM, 90 min, pH 7.4 apical, 7.4 basolateral |  | Papp A to B | 8.18 ×10⁻⁶ cm/s and 10.5 ×10⁻⁶ cm/s
O=C(O)CCC(=O)C(=O)O | HCT-8 infected with Cryptosporidium parvum | Hoechst nuclei count |  | 1 mM, 24 h | reference: PBS | host cell number | 0.923 ± 0.154
C/C=C(/C)C(=O)OC[C@H]1[C@@H](Cc2ccc(C(F)(F)F)cc2)CO[C@@H]1c1ccc(OC)c(OC)c1 | HEK293/NF-κB-luc | CellTracker Green CMFDA |  | 20 µM, 4.5 h, serum-free medium | reference: stimulated untreated cells | viability | 84 ± 17%
Nc1ncnc2nc[nH]c12 | HCT-8 infected with Cryptosporidium parvum | Hoechst nuclei count |  | 1 mM, 24 h | reference: PBS | host cell number | 1.04 ± 0.022
CCCC(CCC)NC(=O)c1ccc2c(c1)OCO2 | CHO-WBL |  |  | 1.67 mg/mL, 3 h, with rat liver S9 | reference: vehicle control | relative cell growth | 72%
